Experimental data gathered from unrelated publications.
Each line is one published result; not all experiments were run side by side. Numbers after ± are the reported error.
Chain of UniProt Q14781 (whole entry, looked up): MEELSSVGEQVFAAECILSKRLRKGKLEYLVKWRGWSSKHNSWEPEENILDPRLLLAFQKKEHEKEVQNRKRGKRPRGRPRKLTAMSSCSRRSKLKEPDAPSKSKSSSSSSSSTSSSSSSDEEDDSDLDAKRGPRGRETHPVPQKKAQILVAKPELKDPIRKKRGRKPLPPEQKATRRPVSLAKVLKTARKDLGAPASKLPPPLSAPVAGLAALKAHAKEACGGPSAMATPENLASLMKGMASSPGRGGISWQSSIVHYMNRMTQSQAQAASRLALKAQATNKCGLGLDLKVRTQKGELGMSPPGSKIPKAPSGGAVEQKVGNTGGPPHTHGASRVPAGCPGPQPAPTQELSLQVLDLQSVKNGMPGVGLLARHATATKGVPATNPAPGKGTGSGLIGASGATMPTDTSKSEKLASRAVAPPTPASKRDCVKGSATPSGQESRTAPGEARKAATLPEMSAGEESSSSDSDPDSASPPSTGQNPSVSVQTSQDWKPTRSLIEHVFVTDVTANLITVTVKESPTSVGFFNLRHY
Chain of UniProt Q9UBF8 (whole entry, looked up): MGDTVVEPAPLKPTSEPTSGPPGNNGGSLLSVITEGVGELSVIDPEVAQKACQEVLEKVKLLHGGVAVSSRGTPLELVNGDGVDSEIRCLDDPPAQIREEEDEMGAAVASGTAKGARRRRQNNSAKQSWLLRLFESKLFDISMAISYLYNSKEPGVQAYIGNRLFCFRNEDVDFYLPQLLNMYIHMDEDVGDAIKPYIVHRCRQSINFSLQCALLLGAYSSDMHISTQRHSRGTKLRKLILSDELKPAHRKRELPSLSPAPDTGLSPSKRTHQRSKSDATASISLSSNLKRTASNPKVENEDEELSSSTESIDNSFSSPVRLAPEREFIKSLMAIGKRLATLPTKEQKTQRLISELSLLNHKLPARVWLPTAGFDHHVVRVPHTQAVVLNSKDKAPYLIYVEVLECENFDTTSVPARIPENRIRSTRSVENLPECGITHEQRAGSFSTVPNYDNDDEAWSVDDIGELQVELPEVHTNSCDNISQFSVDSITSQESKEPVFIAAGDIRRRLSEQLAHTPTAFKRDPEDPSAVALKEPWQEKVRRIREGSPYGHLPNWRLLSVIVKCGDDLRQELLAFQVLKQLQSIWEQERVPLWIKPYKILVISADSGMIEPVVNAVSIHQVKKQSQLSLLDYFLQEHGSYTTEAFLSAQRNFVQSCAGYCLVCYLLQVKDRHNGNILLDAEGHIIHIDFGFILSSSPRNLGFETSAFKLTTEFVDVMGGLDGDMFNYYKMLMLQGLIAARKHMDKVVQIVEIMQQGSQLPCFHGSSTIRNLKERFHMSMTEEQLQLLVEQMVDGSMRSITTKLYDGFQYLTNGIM
Chain of UniProt P05164 (whole entry, looked up): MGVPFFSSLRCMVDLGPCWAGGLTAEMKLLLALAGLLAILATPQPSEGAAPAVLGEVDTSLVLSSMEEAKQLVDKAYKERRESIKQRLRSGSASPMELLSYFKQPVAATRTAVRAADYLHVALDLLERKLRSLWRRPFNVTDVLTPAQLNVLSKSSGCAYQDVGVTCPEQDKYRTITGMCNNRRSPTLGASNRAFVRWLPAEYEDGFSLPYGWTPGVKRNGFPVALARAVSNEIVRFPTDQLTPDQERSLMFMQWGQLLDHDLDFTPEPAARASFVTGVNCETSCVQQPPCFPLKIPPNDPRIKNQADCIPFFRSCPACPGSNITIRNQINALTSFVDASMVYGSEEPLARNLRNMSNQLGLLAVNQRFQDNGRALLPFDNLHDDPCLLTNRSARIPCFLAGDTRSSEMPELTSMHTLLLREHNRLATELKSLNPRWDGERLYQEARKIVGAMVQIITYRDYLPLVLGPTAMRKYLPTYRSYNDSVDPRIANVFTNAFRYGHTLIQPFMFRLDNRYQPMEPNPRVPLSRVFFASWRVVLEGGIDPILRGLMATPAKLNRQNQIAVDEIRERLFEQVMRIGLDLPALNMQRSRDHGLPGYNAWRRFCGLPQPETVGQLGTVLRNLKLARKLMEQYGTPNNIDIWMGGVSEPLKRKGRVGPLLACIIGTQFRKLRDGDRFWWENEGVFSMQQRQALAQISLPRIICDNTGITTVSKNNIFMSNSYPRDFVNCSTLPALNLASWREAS
Chain of UniProt Q9BV86 (whole entry, looked up): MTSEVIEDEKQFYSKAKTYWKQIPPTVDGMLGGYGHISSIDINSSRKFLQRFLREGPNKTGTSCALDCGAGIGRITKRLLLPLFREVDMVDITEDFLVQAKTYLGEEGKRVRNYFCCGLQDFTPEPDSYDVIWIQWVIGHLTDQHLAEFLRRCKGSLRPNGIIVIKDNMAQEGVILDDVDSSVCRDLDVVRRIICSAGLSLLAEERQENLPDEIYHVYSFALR
Chain of UniProt Q01650 (whole entry, looked up): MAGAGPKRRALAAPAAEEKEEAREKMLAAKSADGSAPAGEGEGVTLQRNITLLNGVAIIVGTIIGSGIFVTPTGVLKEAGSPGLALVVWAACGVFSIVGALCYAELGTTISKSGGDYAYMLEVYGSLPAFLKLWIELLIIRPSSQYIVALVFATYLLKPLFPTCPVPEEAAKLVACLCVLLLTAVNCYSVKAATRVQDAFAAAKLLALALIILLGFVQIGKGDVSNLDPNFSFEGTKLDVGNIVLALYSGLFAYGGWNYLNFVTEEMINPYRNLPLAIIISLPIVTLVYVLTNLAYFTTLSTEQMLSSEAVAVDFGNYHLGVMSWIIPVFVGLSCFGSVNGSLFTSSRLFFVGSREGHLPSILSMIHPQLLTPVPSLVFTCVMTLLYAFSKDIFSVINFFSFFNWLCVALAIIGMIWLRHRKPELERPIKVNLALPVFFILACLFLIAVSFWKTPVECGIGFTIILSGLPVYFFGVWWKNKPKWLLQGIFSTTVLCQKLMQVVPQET
Chain of UniProt P30101 (whole entry, looked up): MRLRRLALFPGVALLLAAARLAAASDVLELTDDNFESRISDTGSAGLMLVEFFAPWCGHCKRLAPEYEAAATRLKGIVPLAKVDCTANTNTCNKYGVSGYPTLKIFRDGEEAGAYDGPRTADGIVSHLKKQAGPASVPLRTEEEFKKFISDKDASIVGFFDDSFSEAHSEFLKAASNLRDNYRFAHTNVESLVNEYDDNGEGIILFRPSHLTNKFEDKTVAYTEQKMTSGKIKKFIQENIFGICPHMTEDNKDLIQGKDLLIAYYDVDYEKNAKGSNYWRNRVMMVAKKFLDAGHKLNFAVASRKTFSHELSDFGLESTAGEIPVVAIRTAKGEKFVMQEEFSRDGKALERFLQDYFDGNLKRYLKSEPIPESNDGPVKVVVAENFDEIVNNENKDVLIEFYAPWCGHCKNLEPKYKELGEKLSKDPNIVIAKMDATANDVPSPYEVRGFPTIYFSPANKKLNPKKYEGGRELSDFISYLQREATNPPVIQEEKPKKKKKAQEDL
Chain of UniProt Q04760 (whole entry, looked up): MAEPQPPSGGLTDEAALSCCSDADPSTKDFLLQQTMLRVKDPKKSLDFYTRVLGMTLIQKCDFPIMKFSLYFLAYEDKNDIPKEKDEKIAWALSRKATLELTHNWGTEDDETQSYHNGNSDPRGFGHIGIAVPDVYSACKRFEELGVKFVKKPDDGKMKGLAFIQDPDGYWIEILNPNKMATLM
Chain of UniProt P20618 (whole entry, looked up): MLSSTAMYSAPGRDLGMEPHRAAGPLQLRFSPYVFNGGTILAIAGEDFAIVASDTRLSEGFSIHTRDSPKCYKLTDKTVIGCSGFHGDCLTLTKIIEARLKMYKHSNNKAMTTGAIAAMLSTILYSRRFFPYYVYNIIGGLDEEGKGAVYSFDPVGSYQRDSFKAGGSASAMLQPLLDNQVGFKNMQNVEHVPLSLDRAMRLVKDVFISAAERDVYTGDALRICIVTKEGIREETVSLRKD
Chain of UniProt P45984 (whole entry, looked up): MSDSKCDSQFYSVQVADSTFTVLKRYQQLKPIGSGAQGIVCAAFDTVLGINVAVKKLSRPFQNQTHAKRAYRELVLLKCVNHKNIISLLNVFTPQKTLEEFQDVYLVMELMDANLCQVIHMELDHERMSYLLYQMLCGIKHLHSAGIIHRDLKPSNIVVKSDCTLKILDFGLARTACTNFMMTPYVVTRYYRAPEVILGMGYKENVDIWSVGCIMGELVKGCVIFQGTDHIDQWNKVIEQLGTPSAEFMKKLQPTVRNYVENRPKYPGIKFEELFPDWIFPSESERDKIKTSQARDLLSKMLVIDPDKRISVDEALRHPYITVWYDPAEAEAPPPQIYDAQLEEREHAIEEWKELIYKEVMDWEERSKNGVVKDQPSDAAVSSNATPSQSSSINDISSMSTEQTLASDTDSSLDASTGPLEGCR
Chain of UniProt P28062 (whole entry, looked up): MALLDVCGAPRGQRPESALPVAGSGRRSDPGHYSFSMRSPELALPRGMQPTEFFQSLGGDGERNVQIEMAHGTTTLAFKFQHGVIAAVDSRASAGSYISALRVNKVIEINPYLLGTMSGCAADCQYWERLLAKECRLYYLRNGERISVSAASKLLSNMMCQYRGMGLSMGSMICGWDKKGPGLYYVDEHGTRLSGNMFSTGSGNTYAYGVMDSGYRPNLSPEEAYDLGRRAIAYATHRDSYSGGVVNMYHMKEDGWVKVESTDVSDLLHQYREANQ
Chain of UniProt P00772 (whole entry, looked up): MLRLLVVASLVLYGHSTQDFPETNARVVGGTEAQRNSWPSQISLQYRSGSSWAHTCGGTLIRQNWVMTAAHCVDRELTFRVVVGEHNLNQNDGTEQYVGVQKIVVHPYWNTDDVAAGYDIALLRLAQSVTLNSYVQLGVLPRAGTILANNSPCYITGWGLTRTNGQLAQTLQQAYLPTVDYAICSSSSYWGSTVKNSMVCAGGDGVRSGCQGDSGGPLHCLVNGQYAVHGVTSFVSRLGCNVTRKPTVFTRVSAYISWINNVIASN

CCCCCCCCCCCCCC(=S)NCCCC[C@H](NC(=O)[C@@H]1CCCN1)C(=O)N[C@@H](CCCCN)C(=O)N[C@H](C(=O)NCC(=O)O)[C@@H](C)O — IC50 (SIRT2 (Homo sapiens, UniProt Q8IXJ6)): 1900 nM
C/C=C1\NC(=O)[C@H](C)NC(=O)[C@@H](NC(=O)[C@@H](Cc2ccc(O)cc2)NC(=O)[C@@H](NC(=O)/C(C)=C/C)C(C)C)[C@@H](C)OC(=O)[C@H](CCCCc2ccc(O)cc2)NC(=O)[C@@H](CCC(=O)O)NC1=O — IC50 (CELA1 (Sus scrofa, UniProt P00772); inhibitor): 1150 ± 460 nM
NCc1ccc(Cn2cc(Cc3cc(N)nc4[nH]nnc34)cn2)cc1 — IC50 (Myeloperoxidase (MPO, Homo sapiens, UniProt P05164); enzyme activity, inhibitor, fluorescence): 13 nM
C=CC(=O)N1CCc2ccc(-n3c(=O)ccc4cnc5ccc(-c6cnn(C)c6)cc5c43)cc21 — IC50 (PDGFRA (Homo sapiens, UniProt P16234); enzyme activity, inhibitor): > 10000 nM
Cc1nc(NC(=O)N2CCCC2)sc1-c1csc(C(C)(C)C)n1 — IC50 (PI4KB (Homo sapiens, UniProt Q9UBF8); enzyme activity, inhibitor): 478 nM
N=C(NCCCC(N)C(N)=O)NCCSCC1OC(n2cnc3c(N)ncnc32)C(O)C1O (stereo not drawn) — IC50 (N-terminal Xaa-Pro-Lys N-methyltransferase 1 (Homo sapiens, UniProt Q9BV86); enzyme activity, inhibitor, fluorescence): > 100000 nM
OC[C@H]1[C@@H](O)[C@@H](O)CN1Cc1ccc(I)cc1 — IC50 (Golgi alpha-mannosidase IIb (Drosophila melanogaster, UniProt Q9VF33); inhibitor; added: p-nitrophenyl mannoside): 52000 nM
O=C(N[C@@H](Cc1coc2ccccc12)B(O)O)[C@@H]1C[C@H]2CC[C@@H]1O2 — IC50 (Proteasome component C5/PSMB8 (Homo sapiens, UniProt P20618+P28062); LMP7 enzyme activity, inhibitor; human immunoproteasome; 2 h preincubation, added: Suc-LLVY-AMC): 4.1 ± 2.4 nM
CCCCCCCc1ccc(S(=O)(=O)N2CC2C(=O)OC)cc1 (stereo not drawn) — IC50 (PDIA3 (Homo sapiens, UniProt P30101); enzyme activity, inhibitor, absorbance; pH 7.6): > 200000 nM
N[C@@H](Cc1c[nH]c2ccc(OCc3cccc(-c4ccoc4)c3)cc12)C(=O)O — IC50 (SLC7A5 (Homo sapiens, UniProt Q01650); transporter uptake, inhibitor, radiometric): 40000 nM
CN(C)C/C=C/C(=O)Nc1ccc2nc(NCCCCCN(C)C)nc(NCCCCCCN(C)C)c2c1 — IC50 (Chromobox protein homolog 2, chromodomain (Homo sapiens, UniProt Q14781); methyl-lysine binding, TR-FRET): > 100000 nM
O=C(O[C@H]1Cc2c(O)cc(O)cc2O[C@@H]1c1ccc(O)c(O)c1)c1cc(O)c(O)c(O)c1 — IC50 (maltase, rat; enzyme activity, inhibitor; rat intestinal brush border vesicles): 27500 nM
Cc1ccc(-c2c(/C=C(\C#N)C(=O)NC(C)C)n(CCCO)c3ncnc(N)c23)cc1 — IC50 (Ribosomal protein S6 kinase alpha-3, C-terminal kinase domain (Rps6ka3, Mus musculus, UniProt P18654); enzyme activity, inhibitor; added: glutathione 10 mM pretreatment): 4 nM
Nc1ccc(/N=N/c2ccc(S(N)(=O)=O)cc2)c2ccccc12 — IC50 (GLO1 (Homo sapiens, UniProt Q04760); enzyme activity, inhibitor): 1850 nM
CC(C)C[C@H](NC(=O)[C@H](CC(N)=O)NC(=O)[C@H](CC(C)C)NC(=O)[C@@H](NC(=O)[C@@H](NC(=O)[C@@H]1CCCN1C(=O)[C@H](CCCNC(=N)N)NC(=O)[C@H](CCCCN)NC(=O)[C@@H]1CCCN1C(=O)[C@H](CCCNC(=N)N)NC(=O)[C@@H]1CCCN1C(=O)[C@@H]1CCCN1C(=O)[C@H](CCCNC(=N)N)NC(=O)[C@H](CCCNC(=N)N)NC(=O)[C@H](CCCNC(=N)N)NC(=O)[C@H](CCC(N)=O)NC(=O)[C@H](CCCNC(=N)N)NC(=O)[C@H](CCCNC(=N)N)NC(=O)[C@H](CCCCN)NC(=O)[C@H](CCCCN)NC(=O)[C@H](CCCNC(=N)N)NC(=O)CN)[C@@H](C)O)[C@@H](C)O)C(=O)N[C@@H](Cc1ccccc1)C(=O)N1CCC[C@H]1C(=O)N[C@@H](CCC(N)=O)C(=O)N[C@H](C(=O)N1CCC[C@H]1C(=O)N[C@@H](CCCNC(=N)N)C(=O)N[C@@H](CO)C(=O)N[C@@H](CCC(N)=O)C(=O)N[C@@H](CC(=O)O)C(=O)N[C@H](C(N)=O)[C@@H](C)O)C(C)C — IC50 (MAPK9 (Homo sapiens, UniProt P45984); enzyme activity, inhibitor): 450 ± 40 nM

For quick reference, copied from above:
NCc1ccc(Cn2cc(Cc3cc(N)nc4[nH]nnc34)cn2)cc1 — IC50 (Myeloperoxidase (MPO, Homo sapiens, UniProt P05164); enzyme activity, inhibitor, fluorescence): 13 nM
C=CC(=O)N1CCc2ccc(-n3c(=O)ccc4cnc5ccc(-c6cnn(C)c6)cc5c43)cc21 — IC50 (PDGFRA (Homo sapiens, UniProt P16234); enzyme activity, inhibitor): > 10000 nM
